Measured values pooled from the literature.
Numbered parts are unrelated; each lists some results of a single study. Changes are numbered by the printed parent chain.

Block 1 — technique: protein binding microarray; form: double-stranded DNA, one strand shown; sample: in vitro; concentration: not given; reference: not given; direction: higher = stronger binding
Target: Histone acetyltransferase KAT6A, winged helix 1, GST fusion (KAT6A, Homo sapiens, UniProt Q92794, residues 1-85)
Setting: 8-mer, flanks averaged, mean of 2 arrays, mostly near background
Construct (chain): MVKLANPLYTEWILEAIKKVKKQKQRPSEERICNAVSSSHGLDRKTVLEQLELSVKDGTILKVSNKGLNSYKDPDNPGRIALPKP
Strand | E-score
ACCTCTGA | -0.0994
AACACATA | -0.221
ATGTCTGA | -0.155
TCAATTCA | -0.262
CTCGTCTA | -0.0936
ACTACTTC | -0.02
GAGTTGTA | -0.0916
ATCGGGGG | 0.101

Block 2 — observed: binding; technique: phage display NGS; form: peptide; setting: panning round 2; reference: input library
Target: UDP-N-acetylglucosamine--peptide N-acetylglucosaminyltransferase 110 kDa subunit (OGT, Homo sapiens, UniProt O15294)
Sequence of UniProt O15294 (whole entry, looked up): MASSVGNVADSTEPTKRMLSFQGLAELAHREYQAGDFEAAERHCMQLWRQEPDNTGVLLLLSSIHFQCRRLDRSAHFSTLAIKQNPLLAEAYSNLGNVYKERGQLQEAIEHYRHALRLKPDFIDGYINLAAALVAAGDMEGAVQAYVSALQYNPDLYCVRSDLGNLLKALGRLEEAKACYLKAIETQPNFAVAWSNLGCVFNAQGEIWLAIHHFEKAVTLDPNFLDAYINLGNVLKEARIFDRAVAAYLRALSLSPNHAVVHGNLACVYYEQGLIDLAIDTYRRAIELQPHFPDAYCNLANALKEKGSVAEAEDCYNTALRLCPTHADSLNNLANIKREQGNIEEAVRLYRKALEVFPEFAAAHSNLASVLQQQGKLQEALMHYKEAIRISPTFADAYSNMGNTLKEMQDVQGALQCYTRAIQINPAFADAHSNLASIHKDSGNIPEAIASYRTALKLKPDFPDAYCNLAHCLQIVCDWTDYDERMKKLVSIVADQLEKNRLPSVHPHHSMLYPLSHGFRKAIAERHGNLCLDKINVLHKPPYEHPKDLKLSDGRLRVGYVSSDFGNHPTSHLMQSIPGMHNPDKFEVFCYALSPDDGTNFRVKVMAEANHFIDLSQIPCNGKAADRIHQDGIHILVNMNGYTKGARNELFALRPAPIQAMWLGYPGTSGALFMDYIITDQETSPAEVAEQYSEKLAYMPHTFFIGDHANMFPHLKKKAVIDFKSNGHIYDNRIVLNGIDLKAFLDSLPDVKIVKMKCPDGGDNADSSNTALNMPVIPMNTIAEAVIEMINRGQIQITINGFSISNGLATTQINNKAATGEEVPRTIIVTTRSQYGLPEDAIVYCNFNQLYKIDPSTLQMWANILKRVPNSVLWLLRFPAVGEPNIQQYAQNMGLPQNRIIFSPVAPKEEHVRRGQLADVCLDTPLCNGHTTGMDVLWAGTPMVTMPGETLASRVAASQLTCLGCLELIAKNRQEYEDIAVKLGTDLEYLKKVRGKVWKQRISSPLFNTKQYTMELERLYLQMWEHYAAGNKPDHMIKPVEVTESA
Molecule | minimum log2 enrichment ratio
HPFHHNYVHYLSREQ | 2.45
HQPWPVAQHSHVHHR | 2.37
EVHRDMRYGHAPHA | 2.18
YFEPKYEISFKYPHD | 3.41

Block 3 — target: XBP1, bZIP domain (human); technique: DHFR protein complementation; sample: yeast; reference: wild-type JUN-FOS pair; direction: higher = stronger binding
Setting: single substitutions, most at no-binding floor
Parent: JUN, bZIP domain (human); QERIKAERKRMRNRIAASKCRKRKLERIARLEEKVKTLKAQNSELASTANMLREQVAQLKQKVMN; partner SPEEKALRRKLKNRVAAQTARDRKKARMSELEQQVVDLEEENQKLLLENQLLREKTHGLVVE
Substitution | binding fitness [natural log]
R30A | -0.127
Q41F | -1.49
A29Q | -0.837
N42F | -1.45
A29E | -0.938
V56D | -0.945
A57H | -1.01
L31Y | -1.53

Block 4 — target: CCNA2, cyclin fold, Cln2 fusion (human); technique: yeast growth competition, sequencing; sample: yeast; setting: strong parent motif; reference: not given; direction: higher = stronger binding
Parent: viral docking peptide; TSVRRALFTGGSD; partner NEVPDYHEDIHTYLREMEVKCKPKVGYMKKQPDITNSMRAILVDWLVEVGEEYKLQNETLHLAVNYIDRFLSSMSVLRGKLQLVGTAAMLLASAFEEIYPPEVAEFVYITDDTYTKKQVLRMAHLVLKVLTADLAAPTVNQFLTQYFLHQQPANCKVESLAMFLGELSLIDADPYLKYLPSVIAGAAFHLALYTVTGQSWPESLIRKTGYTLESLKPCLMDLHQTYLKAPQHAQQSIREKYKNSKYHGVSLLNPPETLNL
Substitution | normalised enrichment score
R4V | 3.81
S2T | 6.55
S2G | 6.51
R5N | 0.281
R5F | 0.193
V3Q | 0.36
T9W | 5.69
V3D | -0.146
G10D | 6.19
L7K | 0.683
R5T | 0.767
T9Q | 5.97
F8V | 0.375
A6N | 5.27
G10F | 5.7
G11P | 6.56

For quick reference, copied from above (block 4):
Substitution | normalised enrichment score
G10D | 6.19
L7K | 0.683
S2G | 6.51
